Measured values from different studies.
Lines come from different studies, so protocols differ. “And” joins repeats or separate records; there may be more than shown. Numbers after ± are the reported error.
GBA1 R534H: Lysosomal acid glucosylceramidase (GBA1, Homo sapiens, UniProt P04062, R534H)
Sequence of UniProt P04062 (whole entry, unmodified, looked up): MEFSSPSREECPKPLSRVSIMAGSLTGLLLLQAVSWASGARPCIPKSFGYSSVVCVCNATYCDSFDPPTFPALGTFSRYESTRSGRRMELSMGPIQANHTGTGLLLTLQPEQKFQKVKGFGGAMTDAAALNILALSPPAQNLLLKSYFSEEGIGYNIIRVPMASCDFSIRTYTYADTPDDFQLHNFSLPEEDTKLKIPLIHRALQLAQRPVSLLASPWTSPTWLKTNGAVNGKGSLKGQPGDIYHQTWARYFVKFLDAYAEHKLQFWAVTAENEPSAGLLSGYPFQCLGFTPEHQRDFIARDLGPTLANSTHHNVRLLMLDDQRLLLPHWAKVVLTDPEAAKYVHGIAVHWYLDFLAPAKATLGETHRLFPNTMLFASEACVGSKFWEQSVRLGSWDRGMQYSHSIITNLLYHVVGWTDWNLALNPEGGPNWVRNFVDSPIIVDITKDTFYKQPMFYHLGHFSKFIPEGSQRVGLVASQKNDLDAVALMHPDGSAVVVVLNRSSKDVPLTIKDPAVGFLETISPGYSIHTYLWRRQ

SMILES	tested on	assay	system	setting	scale	endpoint	result
C1=NCCCN=Cc2ccc([nH]2)-c2nc3ccccc3nc2-c2ccc1[nH]2	human ACTN3 291-bp linear dsDNA	high-resolution melt	–	1.06 µM	–	melting temperature	83.3 °C
CC[C@H]1OC(=O)[C@H](C)[C@@H](OC(=O)c2ccc([N+](=O)[O-])cc2)[C@H](C)[C@@H](O[C@@H]2O[C@H](C)C[C@H](N(C)C)[C@H]2O)[C@](C)(OC)C[C@@H](C)C(=O)[C@H](C)[C@@H](O)[C@]1(C)O	Escherichia coli ribosome	in vitro transcription-translation, inhibitor	–	–	–	IC50	3.6 µM
C1=[N+]2CCCC[N+]3=Cc4ccc5[n]4[Au-]23[n]2c1ccc2-c1nc2ccccc2nc1-5.F[P-](F)(F)(F)(F)F	human ACTN3 291-bp linear dsDNA	high-resolution melt	–	83.2 nM	–	melting temperature	83 °C
CC[C@H]1OC(=O)[C@H](C)[C@@H](OC(=O)Cc2ccc3c(c2)OCO3)[C@H](C)[C@@H](O[C@@H]2O[C@H](C)C[C@H](N(C)C)[C@H]2O)[C@](C)(OC)C[C@@H](C)C(=O)[C@H](C)[C@@H](O)[C@]1(C)O	Escherichia coli ribosome	in vitro transcription-translation, inhibitor	–	–	–	IC50	0.22 µM
Fc1ccc(Nc2nc(NC3CCCCC3)c3ccccc3n2)cc1F	β2AR/β1AR ECL1/3 chimera	β-arrestin2 recruitment, antagonist, BRET	–	added: isoprenaline 1 µM	–	pIC50	6
CN1CCCNC(=O)c2cccc(c2)C(=O)NCCCN(C)CCCNc2cccc3c2C(=O)c2cccc(c2C3=O)NCCC1	telomeric G-quadruplex DNA	DNA thermal stabilisation, CD melting	–	concentration not given, pH 7.4, added: 100 mM NaCl	–	ΔTm	4.9 ± 0.1 °C
OC(COc1ccc2cc(Br)ccc2c1)Cn1ccnc1 (stereo not drawn)	Trypanosoma cruzi	reporter mRNA translation, inhibitor, item: capped polyadenylated Renilla luciferase mRNA	cell-free extract	concentration not given	relative to: control RNA	relative translation	110%
OC[C@H]1N[C@H](CCCCCCOCC23CC4CC(CC(C4)C2)C3)[C@H](O)[C@@H](O)[C@@H]1O	GBA1 R534H	inhibitor, 4MU-β-D-glucopyranoside	–	added: 4MU-β-D-glucopyranoside	–	IC50	0.07 µM
O=S(=O)(NCc1ccncc1)c1ccc(C2CCCCC2)cc1	NONO (human)	probe binding, biotin probe pulldown, item: NONO	–	500 µM	relative to: DMSO	inhibition	~31%
C=CC(=O)N1[C@@H](c2ccc3c(c2)OCO3)c2[nH]c3ccccc3c2C[C@H]1C(=O)N1CCN(C)CC1	human cyclin E1 N112C-3xFLAG:CDK2	co-IP with TMT proteomics, item: HNRNPU	–	concentration not given, Q00839	relative to: wild type DMSO	relative co-enrichment	138%
CC(=O)NCCCN(C)CCCNc1cccc2c1C(=O)c1cccc(NCCCN(C)CCCNC(C)=O)c1C2=O	telomeric G-quadruplex DNA	DNA binding, UV-Vis titration	–	–	relative to: Ka telomeric G1 over double-stranded DNA	selectivity ratio	5
CC1(C)CC(c2cn(C3CCCN(C(=O)c4ccc5c(c4)CCOC5(C)C)CC3)nn2)CO1 (stereo not drawn)	FSP1 L323A	resorufin formation, inhibitor	–	added: NADH, resazurin	–	IC50	no inhibition
C1=[N+]2CCC[N+]3=Cc4ccc5[n]4[Au-]23[n]2c1ccc2-c1nc2ccccc2nc1-5.F[P-](F)(F)(F)(F)F	human ACTN3 291-bp linear dsDNA	high-resolution melt	–	81.6 nM	–	melting temperature	83.1 °C
Nc1ncc(-c2cc(-c3cnn(CC(F)(F)F)c3)ncc2F)nc1C(=O)NC1CNCC(F)C1 (stereo not drawn)	RIOK2	KINOMEscan	–	1 µM	relative to: DMSO control	remaining binding	100%
c1ccc(-c2n[nH]cc2-c2ccnc3ccccc23)nc1	PTK2 (Candida albicans)	kinase binding, MIB/MS competition	Candida albicans lysate	1 µM	relative to: DMSO	log2 fold change	0.1
CC[C@H]1OC(=O)[C@H](C)[C@@H](O[C@H]2C[C@@](C)(OC)[C@@H](O)[C@H](C)O2)[C@H](C)[C@@H](O[C@@H]2O[C@H](C)C[C@H](N(C)C)[C@H]2O)[C@](C)(OC)C[C@@H](C)C(=O)[C@H](C)[C@@H](O)[C@]1(C)O	Escherichia coli ribosome	in vitro transcription-translation, inhibitor	–	–	–	IC50	0.41 µM
C=CC(=O)Nc1cccc(Cn2ncc3cnc(Nc4cnn(CCOC)c4)nc32)c1	STK16 human	binding, KINOMEscan	–	100 nM	lower = stronger binding	percent of control	19%
Fc1ccc(Nc2nc(NC3CCCCC3)c3cc(C(F)(F)F)ccc3n2)cc1F	β2AR/β1AR TM2 chimera	β-arrestin2 recruitment, antagonist, BRET	–	added: isoprenaline 1 µM	–	pIC50	6.5
CN(C)CCNc1c2c(c(C#N)c3nc4ccccc4n13)CCCC2	Trypanosoma cruzi	reporter mRNA translation, inhibitor, item: capped polyadenylated Renilla luciferase mRNA	cell-free extract	concentration not given	relative to: control RNA	relative translation	110%
Cc1[nH]nc2c1N=C(c1ccccc1Cl)c1cnc(N3CCOCC3)cc1N2	L-type calcium channel benzothiazepine site, rat	radioligand binding	–	10 µM	–	inhibition	27%
CC[C@H]1OC(=O)[C@H](C)[C@@H](OC(=O)Cc2ccc(C(F)(F)F)cc2)[C@H](C)[C@@H](O[C@@H]2O[C@H](C)C[C@H](N(C)C)[C@H]2O)[C@](C)(OC)C[C@@H](C)C(=O)[C@H](C)[C@@H](O)[C@]1(C)O	Escherichia coli ribosome	in vitro transcription-translation, inhibitor	–	–	–	IC50	> 1 µM and 1.6 µM
NCCOc1cc(NC(=O)c2cc(OCc3cn([C@H]4O[C@@H](CO)[C@H](O)[C@@H](O)[C@@H]4O)nn3)cc(C(=O)Nc3cc(OCCN)c4ccccc4n3)n2)nc2ccccc12	c-kit1 G-quadruplex DNA	FRET melting	–	1 µM, pH 7.4, added: 60 mM potassium	–	ΔTm	18.5 ± 0.8 K
CC1(C)C[N+]2=Cc3ccc4[n]3[Au-]23[n]2c(ccc2-c2nc5ccccc5nc2-4)C=[N+]3C1.F[P-](F)(F)(F)(F)F	human ACTN3 291-bp linear dsDNA	high-resolution melt	–	2.02 µM	–	melting temperature	83.9 °C
NCCCn1cc(COc2cc(C(=O)Nc3cc(OCCN)c4ccccc4n3)nc(C(=O)Nc3cc(OCCN)c4ccccc4n3)c2)nn1	c-kit1 G-quadruplex DNA	FRET melting	–	1 µM, pH 7.4, added: 60 mM potassium	–	ΔTm	13.5 ± 0.8 K
Fc1ccc(Nc2nc(NC3CCCCC3)c3cc(Br)ccc3n2)cc1F	β2AR/β1AR ECL1/3 chimera	β-arrestin2 recruitment, antagonist, BRET	–	–	relative to: isoprenaline maximal response	maximal inhibition	-7.8%
CN1CCCNC(=O)CC2(CCCCC2)CC(=O)NCCCN(C)CCCNc2cccc3c2C(=O)c2cccc(c2C3=O)NCCC1	telomeric G-quadruplex DNA	DNA thermal stabilisation, CD melting	–	concentration not given, pH 7.4, added: 100 mM NaCl	–	ΔTm	< 0.5 °C
CC[C@H]1OC(=O)[C@H](C)[C@@H](OC(=O)Cc2ccc([N+](=O)[O-])cc2)[C@H](C)[C@@H](O[C@@H]2O[C@H](C)C[C@H](N(C)C)[C@H]2O)[C@](C)(OC)C[C@@H](C)C(=O)[C@H](C)[C@@H](O)[C@]1(C)O	Escherichia coli ribosome	in vitro transcription-translation, inhibitor	–	–	–	IC50	0.29 µM
CC(C)=CCC/C(C)=C/CC/C(C)=C/Cc1c(O)cc(CO)c(C=O)c1O	StaI′ (Stachybotrys chartarum)	substrate	–	30 min, pH 7.5, 40 °C	–	kcat	0.003 s⁻¹
CC1(C)OCCc2cc(C(=O)N3CCC(c4nc(-c5ccccc5)n[nH]4)CC3)ccc21	FSP1 L323A	resorufin formation, inhibitor	–	added: NADH, resazurin	–	IC50	no inhibition
OC[C@@H]1[C@@H](O)[C@H](O)[C@@H](O)CN1CCCCCOCC(COCCCCCN1C[C@H](O)[C@@H](O)[C@H](O)[C@H]1CO)C12CC3CC(CC(C3)C1)C2	GBA1 R534H	inhibitor, 4MU-β-D-glucopyranoside	–	added: 4MU-β-D-glucopyranoside	–	IC50	0.38 µM

Some of these lines once more:
SMILES	tested on	assay	system	setting	scale	endpoint	result
CC(=O)NCCCN(C)CCCNc1cccc2c1C(=O)c1cccc(NCCCN(C)CCCNC(C)=O)c1C2=O	telomeric G-quadruplex DNA	DNA binding, UV-Vis titration	–	–	relative to: Ka telomeric G1 over double-stranded DNA	selectivity ratio	5
CC1(C)CC(c2cn(C3CCCN(C(=O)c4ccc5c(c4)CCOC5(C)C)CC3)nn2)CO1 (stereo not drawn)	FSP1 L323A	resorufin formation, inhibitor	–	added: NADH, resazurin	–	IC50	no inhibition
C1=[N+]2CCC[N+]3=Cc4ccc5[n]4[Au-]23[n]2c1ccc2-c1nc2ccccc2nc1-5.F[P-](F)(F)(F)(F)F	human ACTN3 291-bp linear dsDNA	high-resolution melt	–	81.6 nM	–	melting temperature	83.1 °C
Nc1ncc(-c2cc(-c3cnn(CC(F)(F)F)c3)ncc2F)nc1C(=O)NC1CNCC(F)C1 (stereo not drawn)	RIOK2	KINOMEscan	–	1 µM	relative to: DMSO control	remaining binding	100%
c1ccc(-c2n[nH]cc2-c2ccnc3ccccc23)nc1	PTK2 (Candida albicans)	kinase binding, MIB/MS competition	Candida albicans lysate	1 µM	relative to: DMSO	log2 fold change	0.1
